Published values pooled from the literature.
Compare with care: the assays were run in different laboratories. ± gives the spread as reported. Bridge positions count the residues as written; N and C are the ends. Where no end group is shown, it is not given here. Ends that are not written are not given here. The star is where a group is joined. * marks the point of attachment.
HLA-DRA/HLA-DRB1: HLA-DRA/HLA-DRB1 (Homo sapiens, UniProt P01903+P01911)
F2: Prothrombin (F2, Bos taurus, UniProt P00735)
Sequence of UniProt P14780 (whole entry, looked up): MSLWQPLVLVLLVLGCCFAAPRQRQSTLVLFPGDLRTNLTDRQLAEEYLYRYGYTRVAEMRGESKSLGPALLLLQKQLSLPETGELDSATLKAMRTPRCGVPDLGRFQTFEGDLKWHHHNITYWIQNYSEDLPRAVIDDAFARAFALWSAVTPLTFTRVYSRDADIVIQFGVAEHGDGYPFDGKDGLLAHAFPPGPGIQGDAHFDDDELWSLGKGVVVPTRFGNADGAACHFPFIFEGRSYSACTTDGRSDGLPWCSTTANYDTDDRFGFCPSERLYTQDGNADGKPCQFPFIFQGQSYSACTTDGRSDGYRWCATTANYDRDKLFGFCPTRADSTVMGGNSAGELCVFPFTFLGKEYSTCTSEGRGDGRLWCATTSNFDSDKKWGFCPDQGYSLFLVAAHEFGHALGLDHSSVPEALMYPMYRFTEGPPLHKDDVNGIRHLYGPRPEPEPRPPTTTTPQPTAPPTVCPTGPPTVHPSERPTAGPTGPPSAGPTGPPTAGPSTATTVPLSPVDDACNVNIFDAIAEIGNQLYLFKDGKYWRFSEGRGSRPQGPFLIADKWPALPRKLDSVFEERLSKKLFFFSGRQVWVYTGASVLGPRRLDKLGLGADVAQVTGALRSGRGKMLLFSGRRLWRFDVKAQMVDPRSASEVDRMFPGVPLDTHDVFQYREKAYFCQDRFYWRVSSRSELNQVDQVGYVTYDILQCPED
Sequence of UniProt Q14994 (whole entry, looked up): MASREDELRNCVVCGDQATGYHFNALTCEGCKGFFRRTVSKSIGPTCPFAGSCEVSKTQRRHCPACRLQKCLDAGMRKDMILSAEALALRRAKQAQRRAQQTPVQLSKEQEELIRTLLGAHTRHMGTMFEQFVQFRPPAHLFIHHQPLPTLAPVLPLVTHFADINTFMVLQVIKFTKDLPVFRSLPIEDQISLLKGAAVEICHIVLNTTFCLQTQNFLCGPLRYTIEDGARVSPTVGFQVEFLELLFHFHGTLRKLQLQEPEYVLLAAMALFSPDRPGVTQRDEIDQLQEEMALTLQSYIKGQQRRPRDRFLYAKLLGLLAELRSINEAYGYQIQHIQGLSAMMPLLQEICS
Sequence of UniProt P34897 (whole entry, unmodified, looked up): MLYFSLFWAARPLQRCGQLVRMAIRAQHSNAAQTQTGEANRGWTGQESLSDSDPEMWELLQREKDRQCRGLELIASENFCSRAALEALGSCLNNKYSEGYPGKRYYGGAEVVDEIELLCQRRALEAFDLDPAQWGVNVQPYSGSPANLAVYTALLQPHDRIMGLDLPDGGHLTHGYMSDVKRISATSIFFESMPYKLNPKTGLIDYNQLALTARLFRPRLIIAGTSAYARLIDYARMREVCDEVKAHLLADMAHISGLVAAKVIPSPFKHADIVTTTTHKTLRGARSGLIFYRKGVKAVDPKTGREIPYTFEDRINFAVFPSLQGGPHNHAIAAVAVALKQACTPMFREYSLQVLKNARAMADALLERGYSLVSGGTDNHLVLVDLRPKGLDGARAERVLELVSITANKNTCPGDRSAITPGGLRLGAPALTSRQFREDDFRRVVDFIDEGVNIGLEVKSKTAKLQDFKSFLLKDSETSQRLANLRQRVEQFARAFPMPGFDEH
Sequence of UniProt P25123 (whole entry, looked up): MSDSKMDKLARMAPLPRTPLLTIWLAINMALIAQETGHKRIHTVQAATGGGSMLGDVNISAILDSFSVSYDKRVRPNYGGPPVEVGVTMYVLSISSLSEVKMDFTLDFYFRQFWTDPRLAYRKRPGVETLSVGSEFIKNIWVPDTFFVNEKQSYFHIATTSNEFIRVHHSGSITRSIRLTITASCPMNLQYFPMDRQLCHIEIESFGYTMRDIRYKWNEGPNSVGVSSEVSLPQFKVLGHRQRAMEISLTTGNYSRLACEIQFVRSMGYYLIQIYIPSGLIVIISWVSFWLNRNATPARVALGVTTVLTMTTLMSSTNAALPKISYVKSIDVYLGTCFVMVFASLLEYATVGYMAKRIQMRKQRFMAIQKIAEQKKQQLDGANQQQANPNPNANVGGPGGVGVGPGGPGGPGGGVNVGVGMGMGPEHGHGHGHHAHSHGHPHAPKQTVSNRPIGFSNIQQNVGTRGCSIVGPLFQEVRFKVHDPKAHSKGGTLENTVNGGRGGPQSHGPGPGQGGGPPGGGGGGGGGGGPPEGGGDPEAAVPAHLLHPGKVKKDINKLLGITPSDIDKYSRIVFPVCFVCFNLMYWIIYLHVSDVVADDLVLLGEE
Sequence of UniProt P00374 (whole entry, looked up): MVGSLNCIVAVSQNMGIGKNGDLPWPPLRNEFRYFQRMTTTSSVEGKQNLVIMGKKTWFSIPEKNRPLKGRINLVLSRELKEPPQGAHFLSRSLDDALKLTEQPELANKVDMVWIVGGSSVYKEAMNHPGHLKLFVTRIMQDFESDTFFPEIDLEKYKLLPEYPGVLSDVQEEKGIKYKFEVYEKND
Sequence of UniProt P06276 (whole entry, looked up): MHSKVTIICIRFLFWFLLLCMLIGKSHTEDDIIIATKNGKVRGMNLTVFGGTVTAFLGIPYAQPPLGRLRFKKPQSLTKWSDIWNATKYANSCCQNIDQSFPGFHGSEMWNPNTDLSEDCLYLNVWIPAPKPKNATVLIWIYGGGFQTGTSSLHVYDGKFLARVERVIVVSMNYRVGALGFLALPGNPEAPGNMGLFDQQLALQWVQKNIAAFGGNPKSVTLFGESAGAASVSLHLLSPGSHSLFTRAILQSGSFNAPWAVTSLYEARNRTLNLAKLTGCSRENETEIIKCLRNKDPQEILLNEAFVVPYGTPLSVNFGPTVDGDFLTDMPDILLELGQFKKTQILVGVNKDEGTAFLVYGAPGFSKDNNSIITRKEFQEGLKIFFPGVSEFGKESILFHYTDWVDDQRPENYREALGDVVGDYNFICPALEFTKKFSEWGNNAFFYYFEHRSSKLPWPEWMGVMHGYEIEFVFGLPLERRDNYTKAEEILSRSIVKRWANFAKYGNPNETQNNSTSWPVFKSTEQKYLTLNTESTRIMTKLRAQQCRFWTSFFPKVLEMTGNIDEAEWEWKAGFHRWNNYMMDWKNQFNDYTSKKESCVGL
Sequence of UniProt P06241 (whole entry, looked up): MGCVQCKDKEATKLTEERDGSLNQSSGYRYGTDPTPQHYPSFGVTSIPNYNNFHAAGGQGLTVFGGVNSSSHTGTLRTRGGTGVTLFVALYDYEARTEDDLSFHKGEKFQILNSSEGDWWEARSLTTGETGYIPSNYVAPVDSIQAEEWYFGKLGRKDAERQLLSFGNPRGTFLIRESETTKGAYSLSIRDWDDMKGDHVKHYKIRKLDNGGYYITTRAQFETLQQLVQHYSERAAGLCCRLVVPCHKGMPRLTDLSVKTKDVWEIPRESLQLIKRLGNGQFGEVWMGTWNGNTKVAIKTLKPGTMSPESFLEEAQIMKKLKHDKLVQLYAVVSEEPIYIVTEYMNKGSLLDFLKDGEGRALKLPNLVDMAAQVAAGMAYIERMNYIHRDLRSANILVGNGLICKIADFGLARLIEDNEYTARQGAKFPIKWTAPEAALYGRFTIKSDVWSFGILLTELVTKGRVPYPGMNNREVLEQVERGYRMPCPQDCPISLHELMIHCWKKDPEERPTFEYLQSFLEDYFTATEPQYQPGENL
Sequence of UniProt O88703 (whole entry, unmodified, looked up): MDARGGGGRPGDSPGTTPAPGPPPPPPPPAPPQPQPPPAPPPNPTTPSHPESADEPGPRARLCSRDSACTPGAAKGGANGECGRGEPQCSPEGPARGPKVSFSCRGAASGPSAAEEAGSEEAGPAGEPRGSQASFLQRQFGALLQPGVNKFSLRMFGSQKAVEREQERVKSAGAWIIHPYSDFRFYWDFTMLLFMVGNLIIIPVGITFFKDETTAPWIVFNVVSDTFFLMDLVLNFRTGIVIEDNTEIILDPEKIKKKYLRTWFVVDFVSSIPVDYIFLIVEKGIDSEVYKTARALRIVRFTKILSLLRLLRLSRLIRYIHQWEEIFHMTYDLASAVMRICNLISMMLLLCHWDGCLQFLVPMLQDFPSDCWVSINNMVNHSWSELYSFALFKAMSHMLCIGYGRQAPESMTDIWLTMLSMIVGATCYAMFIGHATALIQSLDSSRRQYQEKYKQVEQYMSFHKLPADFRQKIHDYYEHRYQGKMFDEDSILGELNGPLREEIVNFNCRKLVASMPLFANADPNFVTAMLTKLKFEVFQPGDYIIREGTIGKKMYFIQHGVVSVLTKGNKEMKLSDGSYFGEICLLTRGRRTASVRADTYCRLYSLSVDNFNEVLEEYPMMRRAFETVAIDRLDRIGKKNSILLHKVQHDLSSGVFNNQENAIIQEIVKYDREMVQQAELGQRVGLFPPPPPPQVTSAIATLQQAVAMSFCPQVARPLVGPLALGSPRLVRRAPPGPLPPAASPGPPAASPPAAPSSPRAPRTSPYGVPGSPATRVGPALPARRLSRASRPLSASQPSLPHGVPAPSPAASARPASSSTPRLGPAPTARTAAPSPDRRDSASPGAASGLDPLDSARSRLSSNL

For `IDLSDVELDDLGKDEL`, the IC50 was 50 µM (HLA-DRA/HLA-DRB1; binding, inhibitor, radiolabelled peptide competition; peptide; together with: radiolabelled peptide).
`cGMP` gave a ΔH of -20.7 kcal/mol (Potassium/sodium hyperpolarization-activated cyclic nucleotide-gated channel 2, C-terminal region (Hcn2, Mus musculus, UniProt O88703, T592A); binding, ITC).
For `AIP-III D4A`, antagonist activity read “inactive” (Histidine kinase AgrC (Listeria monocytogenes, UniProt A8E0G3); agr reporter gene, antagonist; wild type; 10 µM).
For `PAALVAC(Mca) (Mca-labelled; Mca = COc1ccc2c(CC(=O)*)cc(=O)oc2c1)`, “substrate release rate constant” read 0.00484 h⁻¹ (Matrix metalloproteinase-9 (MMP9, Homo sapiens, UniProt P14780); substrate, fluorescence).
The enrichment score of `CHAAGDYAYATFGFTC (disulfide 1-16 (inferred)) (cyclic, disulfide)` is reported as 915 (Carbapenem-hydrolyzing beta-lactamase KPC (KPC-2, Klebsiella pneumoniae, UniProt Q9F663); phage display selection; after 3 rounds; reference: naive library frequency, direction not given).
`tetrahydrofolate` gave a Vmax of 63 fluorescence units/s (Serine hydroxymethyltransferase, mitochondrial (SHMT2, Homo sapiens, UniProt P34897); enzyme activity, substrate, MTHFD2-coupled NADH fluorescence).
For `Ac-APPIPPPRRKR-NH2 (N-acetyl, C-amide)`, “C–D stretch band area” read 15 ± 1% (Tyrosine-protein kinase Fyn, SH3 domain (FYN, Homo sapiens, UniProt P06241); binding, FTIR spectroscopy; peptide; 4 mM, pH 7.0, band A, protein complex).
The fold change of `insulin human` is reported as 1.05 (item: PPAT mRNA; uninfected mouse, brain; i.p., dose not given; reference: PBS).
`evodiamine` has an efficacy of -89.5 ± 11.2% (Cholinesterase (BCHE, Homo sapiens, UniProt P06276); enzyme activity).
For `Ac-TFELQGGGPRGVNL-NH2 (N-acetyl, C-amide)`, the Km was 326 ± 79 µM (F2; substrate, HPLC; bovine thrombin; pH 7.4, 25 °C, 0.1% PEG).
Under activity, `abamectin` is recorded as “inactive” (Nuclear receptor subfamily 1 group I member 3 (Homo sapiens, UniProt Q14994); cell-based; concentration not given).
`tunicamycin` has an activation of greater than 200% (SMUG1 (Homo sapiens, UniProt Q53HV7); glycosylase activity, activator, fluorescence; 10 µM).
`FYGQTLGQAQAHSQEQ` gave an IC50 of 50 µM (HLA-DRA/HLA-DRB1; binding, inhibitor, radiolabelled peptide competition; peptide; together with: radiolabelled peptide).
The inhibition of `Aprotinin` is reported as -29 ± 4.6% (Ribosomal processing cysteine protease Prp (prp, Staphylococcus aureus, UniProt Q2FXS9, N63Q); 10 µM, enzyme dimer 21.4 nM, together with: FITC peptide substrate 0.5 µM).
The Hill slope of `Ac-DEVD-CHO` is reported as -0.9 (Caspase-6 (CASP6, Homo sapiens, UniProt P55212); inhibitor).
For `aspterric acid`, the hypocotyl length was 0.026 cm (Arabidopsis thaliana Col-0 seeds; 50 µg/mL, seed germination).
`ginkgolide B` gave a koff of 0.083 s⁻¹ (Rdl (Drosophila melanogaster, UniProt P25123); Drosophila; together with: GABA EC50).
`PPAENSSAPEAEQGGAE`: “percentile rank of IC50” 92.4% (HLA-DRA/HLA-DRB1; binding, radiolabeled peptide competition; peptide).
With `dihydrofolic acid` the Km was 5.08 µM (Dihydrofolate reductase (DHFR, Homo sapiens, UniProt P00374); substrate, spectrophotometric).
`Ac-AESDLPTVELQGVVPRGVNL-NH2 (N-acetyl, C-amide)` gave a Km of 270 ± 43 µM (F2; substrate, HPLC hydrolysis; pH 7.4, 25 °C, 0.1% PEG, 100 mM NaCl).
`tunicamycin` gave an activity of greater than 200% (Oxidized purine nucleoside triphosphate hydrolase (NUDT1, Homo sapiens, UniProt P36639); activator; 200 µM, screen).
`Cbz-Phe-Arg-{AMC} (Z-FR-AMC; Cbz = O=C(OCc1ccccc1)*; AMC = Cc1cc(=O)oc2cc(N*)ccc12)`: “optimal CaCl2 concentration” roughly 6 mM (Metacaspase-2 (MCA2, Trypanosoma brucei brucei, UniProt Q585F3); kcat/KM, substrate).

For quick reference, copied from above:
For `Ac-APPIPPPRRKR-NH2 (N-acetyl, C-amide)`, “C–D stretch band area” read 15 ± 1% (Tyrosine-protein kinase Fyn, SH3 domain (FYN, Homo sapiens, UniProt P06241); binding, FTIR spectroscopy; peptide; 4 mM, pH 7.0, band A, protein complex).
The fold change of `insulin human` is reported as 1.05 (item: PPAT mRNA; uninfected mouse, brain; i.p., dose not given; reference: PBS).
`evodiamine` has an efficacy of -89.5 ± 11.2% (Cholinesterase (BCHE, Homo sapiens, UniProt P06276); enzyme activity).
